Experimental data of several laboratories.
Compare with care: the assays were run in different laboratories. Values joined by “and” are separate records of one study, mostly repeats; a detail may differ. ± marks the error that the study gave.

| Substance | tested on | assay | test system | setting | how to read | measurement | result |
| --- | --- | --- | --- | --- | --- | --- | --- |
| aspterric acid |  | root length | Arabidopsis thaliana Col-0 seeds | 3.125 µg/mL |  | inhibition | 8.83% |
| Polymyxin B | Pseudomonas aeruginosa | broth microdilution | P4 clinical isolate | 20 h |  | MIC | 4 µg/mL |
| heparin sodium |  |  | healthy Chinese adult volunteers | continuous intravenous infusion, dose not given, 5 days, excluding prolonged aPTT |  | drug-related AE incidence rate | 100% |
| Teicoplanin A2-2 | Enterococcus faecium |  | VanB vancomycin-resistant |  |  | MIC | 0.5 µg/mL |
| colistin | Klebsiella pneumoniae |  | 1188718 multidrug-resistant |  |  | MIC | ≤ 0.12 µg/mL |
| nonaarginine | PorA peptide pore | peptide binding, planar bilayer single-channel recording |  | 0.5 µM, pH 7.4, +30 mV, trans side, 150 mM KCl |  | kon | 3.15e+07 ± 3e+06 M⁻¹ s⁻¹ |
| colistin sulfate | Pseudomonas aeruginosa | broth microdilution | CMCC 10104 |  |  | MIC | 17.8 µM |
| HVLVMSATRR |  |  | peptide, C57BL/6J mice, male, serum | subcutaneous osmotic pump, 3 mg/kg/day peptide basis, 8 weeks |  | blood urea nitrogen | 21 mg/dL and 32 mg/dL and 31 mg/dL and 28 mg/dL |
| Polymyxin B | Acinetobacter baumannii | broth microdilution, MH medium | carbapenem-resistant CCARM 12005 | 16 h, 37 °C |  | MIC | 2 µM |
| tunicamycin | Enterobacter cloacae | broth microdilution, EUCAST | DSM 30054 | 18 to 24 h, 37 °C |  | MIC | > 64 µg/mL |
| Polymyxin B | Klebsiella pneumoniae | broth microdilution | meropenem-selected KPC-2 strain |  |  | MIC | 32 µg/mL |
| thiostrepton | Streptococcus pyogenes |  |  |  |  | MIC | 0.002 µg/mL |
| insulin human |  | refers to: PTEN mRNA | EcoHIV-infected mouse, brain | i.p., dose not given | reference: PBS | fold change | 1.18 |
| colistin | Staphylococcus aureus |  | USA300 | alone, median and range |  | MIC | 128 µg/mL |
| colistin | Klebsiella pneumoniae | broth microdilution | KPC-127 producing |  |  | MIC | 64 µg/mL |

Some of these lines once more:
| Substance | tested on | assay | test system | setting | how to read | measurement | result |
| --- | --- | --- | --- | --- | --- | --- | --- |
| colistin | Klebsiella pneumoniae |  | 1188718 multidrug-resistant |  |  | MIC | ≤ 0.12 µg/mL |
| nonaarginine | PorA peptide pore | peptide binding, planar bilayer single-channel recording |  | 0.5 µM, pH 7.4, +30 mV, trans side, 150 mM KCl |  | kon | 3.15e+07 ± 3e+06 M⁻¹ s⁻¹ |
